Assay results collected from several papers.
Lines come from different studies, so protocols differ. “And” joins repeats or separate records; there may be more than shown. ± marks the error that the study gave.

`DAMGO` gave an IC50 of 260 nM and 350 nM and 290 nM (PKA-RII phosphorylation, inhibitor, high-content microscopy; DRG neurons, rat, spinal cord injury; together with: forskolin 3 µM).
For `GWTLNSAGYLLGPHAVDNHRSFNDKHGFT-NH2 (C-amide)`, the mRNA level was 1.39 and 0.981 and 1.34 and 0.22 and 0.648 (RT-qPCR, measured: Ccl3; peptide, mouse, DSS-induced colitis, colon; ip, 3 µM, 3% DSS, unit not given; relative to: Gapdh).
For `GLCGKGGKCCCGC`, “ABTS radical scavenging” read 0.916 fraction (0-1) (absorbance at 734 nm; peptide; 1 mg/mL, 5 min, room temperature).
Under “FOXP3+ Treg cells”, `EALYLVCGE` is recorded as 4.14% and 3.03% and 20.3% and 15.4% and 25% and 39% (tetramer binding, flow cytometry; peptide, tetramer-binding CD4+ thymocytes, female NOD.Ins2-/- mice, 6 weeks, thymus; dose not given).
`Met-enkephalin-Arg-Phe`: “maximum possible effect” 1.08% and 27.5% and 14.7% and -9.46% and 6.73% and 9.58% and 19.8% and 5.15% (antinociception, tail-flick; male ICR-CD1 mice; intracerebroventricular, 50 µg/animal, 30 min).
For `LLGKKLLKGAKGG`, “ABTS radical scavenging” read 0.00847 fraction (0-1) (absorbance at 734 nm; peptide; 1 mg/mL, 5 min, room temperature).
`CRQLRKGKFFSEGGSGGTSFEQFWAWLWP` — result for tumour growth: “no effect” (peptide, mice, 786-O PAK4 knock-out xenograft; 5.0 mg/kg).
`aspterric acid` gave a root length of 0.01 cm (Arabidopsis thaliana Col-0 seeds; 25 µg/mL, seed germination).
`polymyxin B`: “leakage time constant” 1 ± 1 min (calcein leakage; DOPC/DOPG/CHOL liposomes; concentration not given, together with: 20 wt% PEG-8000).
Under “ABTS radical scavenging”, `CLCKKGKCGLCGK` is recorded as 0.928 fraction (0-1) (absorbance at 734 nm; peptide; 1 mg/mL, 5 min, room temperature).
For `fengycin`, “leakage time constant” read 13 ± 7 min (calcein leakage; DOPC/CHOL liposomes; concentration not given, together with: 20 wt% PEG-8000).
For `GWTLNSAGYLLGPRRIDHLLMIKEMPIARGREEAPGA / YAVDNHRSFNDKHGFT-NH2 (C-amide)`, the mRNA level was 0.667 and 0.296 and 0.311 and 1.02 and 0.229 (RT-qPCR, measured: Il1a; mouse, DSS-induced colitis, colon; ip, 3 µM, 3% DSS, unit not given; relative to: Gapdh).
The fold change of `insulin human` is reported as 1.02 (measured: MAPK14 mRNA; EcoHIV-infected mouse, brain; i.p., dose not given; relative to: PBS).
Under “leakage time constant”, `mycosubtilin` is recorded as 7 ± 4 min (calcein leakage; DOPC/DOPG/CHOL liposomes; concentration not given, together with: 40 mM CaCl2).
For `KKPRPWPWKRRKK`, “ABTS radical scavenging” read 0.721 fraction (0-1) (absorbance at 734 nm; peptide; 1 mg/mL, 5 min, room temperature).

Repeated from above:
For `LLGKKLLKGAKGG`, “ABTS radical scavenging” read 0.00847 fraction (0-1) (absorbance at 734 nm; peptide; 1 mg/mL, 5 min, room temperature).
The fold change of `insulin human` is reported as 1.02 (measured: MAPK14 mRNA; EcoHIV-infected mouse, brain; i.p., dose not given; relative to: PBS).
